Assay results gathered from unrelated publications.
Every numbered part comes from another study and shows a few of its results, in no order.

Sample 1
Target: PABPC1L2, full length, GST fusion (mouse, UniProt A0ABA7IW68)
Technique: RNAcompete
Molecule type: RNA
Sample: in vitro
Tested at: 20 nM
Setting: 7-mer, probes averaged, single round
Reference: mean of 7-mers
Direction: higher = stronger binding
Measurement: 7-mer Z-score
Residues (chain): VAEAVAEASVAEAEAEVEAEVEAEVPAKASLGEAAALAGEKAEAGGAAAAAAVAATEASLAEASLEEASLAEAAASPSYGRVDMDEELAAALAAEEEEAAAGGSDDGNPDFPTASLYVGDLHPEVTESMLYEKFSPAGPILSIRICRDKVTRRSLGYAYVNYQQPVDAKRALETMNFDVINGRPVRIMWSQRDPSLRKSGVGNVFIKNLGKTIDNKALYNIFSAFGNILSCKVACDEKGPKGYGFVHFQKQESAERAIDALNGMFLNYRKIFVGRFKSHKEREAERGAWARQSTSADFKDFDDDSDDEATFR
Strand = AUCUGGU; value = -0.159
Strand = GUCGAUA; value = -0.32
Strand = CGCCAGU; value = -0.238
Strand = CGCAGAC; value = -0.00833

Sample 2
Target: Ras GTPase-activating protein-binding protein 1, full length (G3BP1, Homo sapiens, UniProt Q13283)
Sequence of UniProt Q13283 (whole entry, looked up): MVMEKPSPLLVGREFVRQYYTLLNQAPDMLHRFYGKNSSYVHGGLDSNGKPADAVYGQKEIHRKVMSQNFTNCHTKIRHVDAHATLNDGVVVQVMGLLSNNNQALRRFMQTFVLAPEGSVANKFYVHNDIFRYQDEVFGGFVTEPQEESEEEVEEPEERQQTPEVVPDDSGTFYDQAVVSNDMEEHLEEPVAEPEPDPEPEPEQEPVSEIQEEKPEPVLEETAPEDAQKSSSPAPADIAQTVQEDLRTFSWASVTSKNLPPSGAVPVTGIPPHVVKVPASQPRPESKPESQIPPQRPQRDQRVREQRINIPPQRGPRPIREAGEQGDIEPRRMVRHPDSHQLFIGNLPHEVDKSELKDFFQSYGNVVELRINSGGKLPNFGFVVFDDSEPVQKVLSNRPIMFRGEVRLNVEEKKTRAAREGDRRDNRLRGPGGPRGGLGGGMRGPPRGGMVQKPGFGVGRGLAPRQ
Technique: RNA Bind-n-Seq
Molecule type: RNA
Sample: in vitro
Tested at: 200 nM
Setting: whole 134-nt RNA, ends assumed
Added: 150 mM LiCl
Reference: input library
Direction: higher = stronger binding
Measurement: log2 enrichment
All molecules: 7-deaza-guanosine replaces G
Strand = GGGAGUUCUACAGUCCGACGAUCAAGUCCUGUGCUACACAUCGUAUGUACCGAAUCGGGUGGGUUUUUUUGGGUUUGGGAAAGUAUUAUGUUACGCCGUUCGGAUCUGCACUUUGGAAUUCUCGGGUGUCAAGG; value = -0.617
Strand = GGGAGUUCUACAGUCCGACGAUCAGUCCUGUGCUACACAUCGUAUGUACCGAAUCGGAAAAAGGGGAAAAAGGGAAAAAGGAAAGUAUUAUGUUACGCCGUUCGGAUCUGCACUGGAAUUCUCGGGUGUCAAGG; value = -0.487
Strand = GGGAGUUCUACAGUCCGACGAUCUUUGGCAAUGAGAUCUAAACCAGACAAAGACCUCCUUAUGGAAGAAGAUGACAUGGCCUUGGCAAAUGUAGUCAUGCAGGAAGCUCAGAAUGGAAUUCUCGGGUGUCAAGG; value = -2.2
Strand = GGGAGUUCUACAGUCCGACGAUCGCAGGAAGUAAAAACAAAUGGAAAUGCUUCGGAUAGUGGCAGGGGUGGGGGUUGCUAAGGAAAGCGUGGGAUGGGAGUGGGUAAAGAGUUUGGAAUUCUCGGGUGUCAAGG; value = 0.122
Strand = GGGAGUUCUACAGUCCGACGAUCCUCAAGUCCUGUGCUACACAUCGUAUGUACCGAAUCGGUUGGGGUUGGUUGGGGAAAGUAUUAUGUUACGCCGUUCGGAUCUGCACUUCCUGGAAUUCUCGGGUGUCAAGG; value = 0.0855

Sample 3
Target: RING finger protein unkempt homolog, zinc fingers 1-6, GST-SBP tag (UNK, Homo sapiens, UniProt Q9C0B0, residues 30-357)
Sequence of UniProt Q9C0B0 (30-357, looked up): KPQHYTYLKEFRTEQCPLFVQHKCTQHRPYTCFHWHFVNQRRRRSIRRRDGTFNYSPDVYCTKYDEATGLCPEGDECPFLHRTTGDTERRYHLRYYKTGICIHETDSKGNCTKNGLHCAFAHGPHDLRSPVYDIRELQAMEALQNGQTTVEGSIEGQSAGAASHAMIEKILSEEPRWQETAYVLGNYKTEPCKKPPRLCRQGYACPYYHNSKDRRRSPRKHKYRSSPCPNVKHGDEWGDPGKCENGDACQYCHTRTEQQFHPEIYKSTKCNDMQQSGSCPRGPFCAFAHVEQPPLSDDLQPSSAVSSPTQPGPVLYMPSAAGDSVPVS
Technique: RNA Bind-n-Seq
Molecule type: RNA
Sample: in vitro
Tested at: not given
Setting: RNA with constant flanks, ends assumed
Reference: input RNA pool
Direction: higher = stronger binding
Measurement: bound/input enrichment
Strand = GGGAGUUCUACAGUCCGACGAUCUAUAUCACCAAUGUCCUACAAAAUCCUGACUUGGCUCUGAGAAUGGCUGUGCGGAACAACUCCGCUGGUGCUGAAGAACUCUUUGCCCGGAAAUUUAAUGCUCUCUUCGCCCAGGGAAACCAACAGAGGAUUGAGCAUCA; value = 0.257 ratio
Strand = GGGAGUUCUACAGUCCGACGAUCAAAAAACCCCGAUUUUAGAUAUUUAGGCUUUCAUUCUAGUUUGGUUUUGUCUUUUCUUGUUCCGAUACCACUUAAAUUCUUGGCAUUUUAGUAAGCAAGCUACCUUUUUAUGGAUGUUAGCAACAGAGGAUUGAGCAUCA; value = 16.3 ratio
Strand = GGGAGUUCUACAGUCCGACGAUCAAGAACUUGGCCCUCAUGACACAUAUAACAACUGACAUGGAAGAUGGACCCAUUAUUAAGUCCGCUGGGAACUUGGGAGUAGAAGAUGUGAAUUUAUUAUGUGGAGAAGAGCUCUCUUACCAACAGAGGAUUGAGCAUCA; value = 0.299 ratio

Further values, each from its own experiment
Substance = PhoQ, residues 284 288 289 292 302 303 ALAMYF; target = PhoP, residues 12 14 15 18 19 AWHSL (Escherichia coli, UniProt P23836); assay = Sort-seq, refers to: YFP reporter; test system = E. coli; conditions = PhoQ-PhoP variant library, added: 10 µM Mg2+; scale = reference: high Mg2+ state, higher = stronger signaling; measurement = fold induction; value = 2.64

For quick reference, copied from above (sample 2):
Strand = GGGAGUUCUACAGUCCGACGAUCCUCAAGUCCUGUGCUACACAUCGUAUGUACCGAAUCGGUUGGGGUUGGUUGGGGAAAGUAUUAUGUUACGCCGUUCGGAUCUGCACUUCCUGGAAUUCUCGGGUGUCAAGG; value = 0.0855
